Measurements pooled from the literature.
Parts stem from different laboratories: compare values within a part only. pIC50, pKi: −log10 of the molar value.
Chain of UniProt P06493 (whole entry, looked up): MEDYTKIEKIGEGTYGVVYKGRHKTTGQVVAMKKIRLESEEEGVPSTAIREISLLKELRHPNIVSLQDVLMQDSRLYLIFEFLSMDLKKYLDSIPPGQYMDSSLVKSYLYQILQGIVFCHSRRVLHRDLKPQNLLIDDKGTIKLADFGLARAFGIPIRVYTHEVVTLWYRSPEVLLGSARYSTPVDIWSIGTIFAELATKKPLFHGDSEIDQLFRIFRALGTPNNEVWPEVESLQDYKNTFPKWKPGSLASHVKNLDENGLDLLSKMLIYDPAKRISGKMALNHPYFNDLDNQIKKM
Chain of UniProt Q86UE8 (whole entry, looked up): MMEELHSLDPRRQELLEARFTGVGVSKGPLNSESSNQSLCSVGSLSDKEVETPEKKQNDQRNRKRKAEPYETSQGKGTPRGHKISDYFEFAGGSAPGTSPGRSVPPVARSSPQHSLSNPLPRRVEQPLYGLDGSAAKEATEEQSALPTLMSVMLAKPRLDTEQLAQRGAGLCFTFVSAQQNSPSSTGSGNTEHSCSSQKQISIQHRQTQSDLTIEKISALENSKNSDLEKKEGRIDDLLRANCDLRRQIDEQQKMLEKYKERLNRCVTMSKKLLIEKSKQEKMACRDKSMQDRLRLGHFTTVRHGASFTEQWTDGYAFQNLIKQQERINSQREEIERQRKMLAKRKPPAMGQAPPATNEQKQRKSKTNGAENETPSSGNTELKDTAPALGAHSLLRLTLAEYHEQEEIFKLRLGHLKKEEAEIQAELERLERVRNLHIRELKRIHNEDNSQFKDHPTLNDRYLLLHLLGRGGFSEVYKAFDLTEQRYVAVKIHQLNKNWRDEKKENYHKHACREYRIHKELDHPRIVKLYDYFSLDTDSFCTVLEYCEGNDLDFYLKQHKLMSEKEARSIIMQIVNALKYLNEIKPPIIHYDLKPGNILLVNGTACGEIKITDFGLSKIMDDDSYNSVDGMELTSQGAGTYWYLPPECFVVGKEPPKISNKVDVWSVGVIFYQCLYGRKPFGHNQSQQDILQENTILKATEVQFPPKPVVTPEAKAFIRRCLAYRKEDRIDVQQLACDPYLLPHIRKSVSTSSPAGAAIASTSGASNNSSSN
Chain of UniProt Q8WXR4 (whole entry, looked up): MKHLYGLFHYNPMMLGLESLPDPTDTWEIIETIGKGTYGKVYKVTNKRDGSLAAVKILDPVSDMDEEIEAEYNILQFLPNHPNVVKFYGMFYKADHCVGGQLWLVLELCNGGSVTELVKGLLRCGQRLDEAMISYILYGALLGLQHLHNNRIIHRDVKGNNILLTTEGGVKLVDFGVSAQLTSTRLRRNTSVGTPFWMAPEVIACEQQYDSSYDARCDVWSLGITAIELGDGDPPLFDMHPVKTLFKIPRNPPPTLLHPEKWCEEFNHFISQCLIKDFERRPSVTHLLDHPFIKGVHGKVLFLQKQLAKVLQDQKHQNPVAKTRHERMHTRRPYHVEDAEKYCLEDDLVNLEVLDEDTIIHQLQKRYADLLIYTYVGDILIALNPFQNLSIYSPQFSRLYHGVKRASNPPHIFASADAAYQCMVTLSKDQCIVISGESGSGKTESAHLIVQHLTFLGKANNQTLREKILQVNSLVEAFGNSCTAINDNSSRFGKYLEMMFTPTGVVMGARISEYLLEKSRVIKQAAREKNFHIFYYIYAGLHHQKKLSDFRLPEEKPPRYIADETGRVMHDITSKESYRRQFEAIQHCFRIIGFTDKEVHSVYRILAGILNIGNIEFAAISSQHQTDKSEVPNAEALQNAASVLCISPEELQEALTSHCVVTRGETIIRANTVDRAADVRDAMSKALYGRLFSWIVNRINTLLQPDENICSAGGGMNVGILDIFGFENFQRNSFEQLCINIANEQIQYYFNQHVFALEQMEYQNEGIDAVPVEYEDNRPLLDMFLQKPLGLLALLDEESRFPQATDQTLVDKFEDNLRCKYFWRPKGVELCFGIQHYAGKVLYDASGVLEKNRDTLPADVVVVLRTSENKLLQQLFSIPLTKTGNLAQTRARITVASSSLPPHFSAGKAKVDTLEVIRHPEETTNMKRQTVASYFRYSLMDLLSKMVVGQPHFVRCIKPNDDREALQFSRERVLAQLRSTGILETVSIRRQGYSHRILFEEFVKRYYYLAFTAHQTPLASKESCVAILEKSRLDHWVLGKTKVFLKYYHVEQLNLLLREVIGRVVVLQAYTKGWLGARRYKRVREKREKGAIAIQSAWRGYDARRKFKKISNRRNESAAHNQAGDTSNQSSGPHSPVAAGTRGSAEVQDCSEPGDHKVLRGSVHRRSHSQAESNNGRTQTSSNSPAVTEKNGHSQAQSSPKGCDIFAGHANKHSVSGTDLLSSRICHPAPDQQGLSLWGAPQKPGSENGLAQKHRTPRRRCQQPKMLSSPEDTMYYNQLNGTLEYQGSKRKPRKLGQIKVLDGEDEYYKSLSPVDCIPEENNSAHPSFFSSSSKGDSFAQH
Chain of UniProt Q16832 (whole entry, looked up): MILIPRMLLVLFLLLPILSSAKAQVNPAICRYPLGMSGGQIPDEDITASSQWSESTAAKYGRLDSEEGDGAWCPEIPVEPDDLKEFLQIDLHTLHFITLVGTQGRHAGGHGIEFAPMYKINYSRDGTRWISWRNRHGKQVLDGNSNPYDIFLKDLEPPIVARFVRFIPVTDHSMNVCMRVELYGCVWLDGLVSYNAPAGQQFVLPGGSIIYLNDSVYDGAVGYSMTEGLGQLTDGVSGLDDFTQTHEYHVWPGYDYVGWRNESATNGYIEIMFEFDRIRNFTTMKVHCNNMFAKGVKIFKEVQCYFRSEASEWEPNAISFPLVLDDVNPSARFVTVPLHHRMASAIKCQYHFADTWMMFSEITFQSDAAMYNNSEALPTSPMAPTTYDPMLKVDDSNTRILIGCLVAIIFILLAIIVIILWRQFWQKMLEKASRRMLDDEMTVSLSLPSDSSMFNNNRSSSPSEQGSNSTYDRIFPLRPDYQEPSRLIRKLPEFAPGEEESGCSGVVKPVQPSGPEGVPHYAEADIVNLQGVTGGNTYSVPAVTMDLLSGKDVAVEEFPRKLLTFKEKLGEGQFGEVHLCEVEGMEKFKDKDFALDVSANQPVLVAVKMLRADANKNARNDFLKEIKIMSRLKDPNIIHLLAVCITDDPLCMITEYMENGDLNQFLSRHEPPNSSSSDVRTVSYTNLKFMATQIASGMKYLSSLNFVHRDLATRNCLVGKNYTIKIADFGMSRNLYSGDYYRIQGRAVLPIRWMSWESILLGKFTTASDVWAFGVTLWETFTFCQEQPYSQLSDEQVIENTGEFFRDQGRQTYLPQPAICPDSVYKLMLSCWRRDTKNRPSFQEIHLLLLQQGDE
Chain of UniProt Q8N568 (whole entry, looked up): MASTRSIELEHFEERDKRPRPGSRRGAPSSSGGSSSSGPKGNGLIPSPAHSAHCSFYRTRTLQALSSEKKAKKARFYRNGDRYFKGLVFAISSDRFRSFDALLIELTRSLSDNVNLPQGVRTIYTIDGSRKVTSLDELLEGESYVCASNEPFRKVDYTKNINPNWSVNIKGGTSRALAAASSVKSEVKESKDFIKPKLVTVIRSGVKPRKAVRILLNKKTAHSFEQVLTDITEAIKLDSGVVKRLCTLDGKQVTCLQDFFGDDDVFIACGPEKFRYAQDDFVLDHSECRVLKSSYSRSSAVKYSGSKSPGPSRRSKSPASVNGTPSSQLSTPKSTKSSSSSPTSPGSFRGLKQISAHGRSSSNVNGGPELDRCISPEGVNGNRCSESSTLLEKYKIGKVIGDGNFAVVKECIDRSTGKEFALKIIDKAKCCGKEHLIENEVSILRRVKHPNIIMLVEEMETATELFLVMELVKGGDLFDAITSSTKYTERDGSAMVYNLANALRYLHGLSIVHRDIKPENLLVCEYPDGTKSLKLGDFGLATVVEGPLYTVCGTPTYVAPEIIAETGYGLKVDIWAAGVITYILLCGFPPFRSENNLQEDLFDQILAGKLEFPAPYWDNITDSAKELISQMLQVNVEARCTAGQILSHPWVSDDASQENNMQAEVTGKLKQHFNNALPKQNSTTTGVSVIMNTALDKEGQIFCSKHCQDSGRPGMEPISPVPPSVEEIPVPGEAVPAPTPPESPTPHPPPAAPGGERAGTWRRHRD
Chain of UniProt Q9QZL0 (whole entry, unmodified, looked up): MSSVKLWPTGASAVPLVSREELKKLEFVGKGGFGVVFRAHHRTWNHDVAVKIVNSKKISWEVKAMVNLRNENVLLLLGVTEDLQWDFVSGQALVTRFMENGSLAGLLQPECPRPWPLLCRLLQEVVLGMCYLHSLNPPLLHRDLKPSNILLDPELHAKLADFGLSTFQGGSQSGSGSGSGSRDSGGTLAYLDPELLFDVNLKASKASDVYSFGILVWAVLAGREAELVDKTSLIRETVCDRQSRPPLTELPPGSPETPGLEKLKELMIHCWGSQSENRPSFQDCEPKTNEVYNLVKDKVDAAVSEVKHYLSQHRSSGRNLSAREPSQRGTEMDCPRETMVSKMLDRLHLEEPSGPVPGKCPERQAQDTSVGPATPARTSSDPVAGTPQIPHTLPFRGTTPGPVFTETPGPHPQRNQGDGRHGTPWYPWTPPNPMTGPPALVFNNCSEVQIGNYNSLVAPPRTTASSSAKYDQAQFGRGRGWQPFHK
Chain of UniProt P49761 (whole entry, looked up): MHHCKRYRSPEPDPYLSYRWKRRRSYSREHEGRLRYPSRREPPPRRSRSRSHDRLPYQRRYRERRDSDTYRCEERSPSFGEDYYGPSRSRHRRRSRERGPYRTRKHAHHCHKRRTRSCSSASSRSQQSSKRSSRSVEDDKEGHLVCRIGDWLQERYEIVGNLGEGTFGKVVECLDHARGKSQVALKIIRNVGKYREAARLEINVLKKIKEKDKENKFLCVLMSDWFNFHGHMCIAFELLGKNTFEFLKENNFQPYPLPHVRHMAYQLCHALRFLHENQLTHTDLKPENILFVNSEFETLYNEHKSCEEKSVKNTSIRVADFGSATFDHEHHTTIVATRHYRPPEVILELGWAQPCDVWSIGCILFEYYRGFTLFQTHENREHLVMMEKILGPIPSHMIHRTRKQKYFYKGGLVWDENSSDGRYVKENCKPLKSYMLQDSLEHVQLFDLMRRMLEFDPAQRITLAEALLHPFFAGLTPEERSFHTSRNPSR

Study 1
Organism: Plasmodium berghei
Mode: inhibitor
Cell line: Huh-7
Strain: GFP-expressing, liver stage
Concentration: 10 µM
Time: 24 h
Reference: untreated control
CC(C)(CO)[C@@H](O)C(=O)NCCC(=O)O gave an infection rate of 97.5%.
For CCCN(CCC)C(=O)C(CCC(=O)O)NC(=O)c1ccccc1 (stereo not drawn), the infection rate was 113%.
CC(Oc1ccccc1)C(=O)N[C@@H]1C(=O)N2[C@@H]1SC(C)(C)[C@@H]2C(=O)O (stereo partly drawn) gave an infection rate of 100%.
CN1CC(=O)N2[C@H](c3ccc4c(c3)OCO4)c3[nH]c4ccccc4c3C[C@@H]2C1=O has an infection rate of 86.1%.
The infection rate of c1ccc(CC2=NCCN2)cc1 is reported as 104%.
For COCCCOc1ccnc(C[S+]([O-])c2nc3ccccc3[nH]2)c1C (stereo not drawn), the infection rate was 100%.
With CN1CCC(=C2c3ccccc3CCc3sccc32)CC1 the infection rate was 80.8%.
The infection rate of CC(C)(CO)C(O)C(=O)NCCCO (stereo not drawn) is reported as 98.2%.

Study 2
Target: RING finger protein unkempt homolog, zinc fingers 1-6, GST-SBP tag (UNK, Homo sapiens, UniProt Q9C0B0, residues 30-357)
Technique: RNA Bind-n-Seq
Form: RNA
Matrix: in vitro
Concentration: not given
Notes: RNA with constant flanks, human and mouse sites, ends assumed
Reference: input RNA pool
Reading: higher = stronger binding
Residues (chain): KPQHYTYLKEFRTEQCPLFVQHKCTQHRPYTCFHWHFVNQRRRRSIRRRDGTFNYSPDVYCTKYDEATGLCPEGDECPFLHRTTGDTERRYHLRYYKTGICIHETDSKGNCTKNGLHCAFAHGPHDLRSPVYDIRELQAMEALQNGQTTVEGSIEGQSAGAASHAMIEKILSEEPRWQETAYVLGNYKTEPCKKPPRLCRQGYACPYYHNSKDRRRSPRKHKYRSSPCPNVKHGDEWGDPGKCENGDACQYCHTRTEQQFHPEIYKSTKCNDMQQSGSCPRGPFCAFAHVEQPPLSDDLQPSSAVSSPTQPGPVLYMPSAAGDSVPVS
`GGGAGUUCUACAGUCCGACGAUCCCUCCUUAUGCAAACGGUGACCCUCAUGUUGGACAUGCUUUAAAUAAGAUUUUGAAAGACAUAGCCAAUCGAUUCCAUAUGAUGAAUGGCUCCAAAAUACAUUUUGUGCCCGGCUGGGAUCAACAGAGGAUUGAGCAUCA` has a bound/input enrichment of 0.217 ratio.
The bound/input enrichment of `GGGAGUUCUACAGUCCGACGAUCCCUGGCUUCUUAAGGCUGUGCACCACUAUGGGAUCCUUUGCAGAAUGGUACUCAUAAAAUGGUUUAAACAACACAUGCUUAAUUGACUGUGCAGGAUGUCAAUCAAUCUGGGUUUGCUUUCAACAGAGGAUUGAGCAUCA` is reported as 0.168 ratio.
The bound/input enrichment of `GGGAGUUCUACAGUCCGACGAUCGUAAUGUGUCCAUUUAACUUAUUUUUAUAGCACUUAGGCAAUAUUGUUAGUCUUAGUGAGUAGUUCACAUCUUUACAAAAGCAUGCUCUCCCUAUCCAUUGGGCCCACAAUAACACUCUCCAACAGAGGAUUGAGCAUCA` is reported as 11.9 ratio.
With `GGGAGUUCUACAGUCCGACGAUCCAUUGGAGACUGAGCAAAAGGAAAUGUGAAACGAAUAACAUGAUGGAAUAUGUCAUCCUCAUAGAAUUUUUACCAAAGACACCGAUUUUUCGACCAGAUUAGCAUUUACUUUAUUUAUAGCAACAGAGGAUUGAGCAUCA` the bound/input enrichment was 28.8 ratio.
`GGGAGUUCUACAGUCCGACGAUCGGCCGGGGCCUGGGCCUGAGCAUCGUUGGGAAACGAAAUGGAAGCGGAGUGUUUAUUUCUGACAUCGUGAAAGGCGGAGCCGCAGACCUGGAUGGGAGAUUGAUUCAGGGAGAUCAGAUCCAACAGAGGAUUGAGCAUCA` gave a bound/input enrichment of 0.296 ratio.
With `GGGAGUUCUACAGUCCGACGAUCAGCAAAAAAAAAAAAAAAAAAAAAAAAAAAAAGAGUCUCACUGUGCAGCUCAGCUUGUCUUUUAGUGUGUAGGCCUGGUUGUGAUCUUCCCAUCUCCUGAGAGCUGAGAUUACCAGUGUGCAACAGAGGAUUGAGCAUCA` the bound/input enrichment was 1.32 ratio.
`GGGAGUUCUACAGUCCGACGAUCCUGACAGAAAUGGACAGCAAUUACCAUUUUUACUCAUCGAUCUCCUCGCUGGAAAAAGAAGUGGGCAACUGUGGUCCACAUUUCCUUCAUGGUUUUGAGGAUUCUUUCAGCAGCAUCCUCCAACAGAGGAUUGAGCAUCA` has a bound/input enrichment of 0.0557 ratio.
For `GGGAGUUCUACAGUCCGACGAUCUUCAAAAUGAAAAUUGAAUACUGGCACUCCAUCUCUUAGAACAUAUGAAUUCUAGUGUUCAAUAUUCAUUAUUGGUUGUUUUUGUUGUGCUGAUUUUUGGUGAUCAGACCUCAGCUCCCUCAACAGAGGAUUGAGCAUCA`, the bound/input enrichment was 4.19 ratio.

Study 3
SMILES: O=c1cc(N2CCOCC2)oc2c(-c3ccccc3)cccc12
Effect on: enzyme activity
Mode: inhibitor
Concentration: 0.5 µM
Reference: control
The remaining activity was 104% (CAMK4 (Homo sapiens, UniProt Q16566)).
It gave 70.3% for remaining activity (MAPK1 (Homo sapiens, UniProt P28482)).
For GRK4 (Homo sapiens, UniProt P32298): remaining activity read 96.5%.
It gave 87.7% for remaining activity (MAPK14 (Homo sapiens, UniProt Q16539)).
For DCLK2 (Homo sapiens, UniProt Q8N568): remaining activity read 97.6%.
For PNCK (Homo sapiens, UniProt Q6P2M8): remaining activity read 98.4%.
It gave 104% for remaining activity (Myosin-IIIb (MYO3B, Homo sapiens, UniProt Q8WXR4)).
It gave 91.3% for remaining activity (DDR2 (Homo sapiens, UniProt Q16832)).
It gave 88.4% for remaining activity (CDC42BPB (Homo sapiens, UniProt Q9Y5S2)).
For ROCK1 (Homo sapiens, UniProt Q13464): remaining activity read 104%.
The remaining activity was 107% (CLK3 (Homo sapiens, UniProt P49761)).
It gave 87.2% for remaining activity (KDR (Homo sapiens, UniProt P35968)).
Cyclin-dependent kinase 1, with cyclin A (CDK1, Homo sapiens, UniProt P06493) — remaining activity: 92%.
The remaining activity was 83.2% (TLK2 (Homo sapiens, UniProt Q86UE8)).

Single results of other studies
The pKi of c1ccc(N2CCN(Cc3nc4ccccc4[nH]3)CC2)nc1 is reported as 5.92 (SIGMAR1 (Homo sapiens, UniProt Q99720); binding, radioligand binding).
For O=c1[nH]c2ccccc2n1CCN1CCN(c2cccc(C(F)(F)F)c2)CC1, the pIC50 was 6.90 (SLC18A2 (Homo sapiens, UniProt Q05940); transporter uptake, inhibitor, radiometric; cell membranes).
Under “SEC elution volume”, CC(C)S(=O)(=O)c1ccc2nccc(Nc3ccc4scnc4c3)c2c1 is recorded as 14.9 mL (Ripk3 (Mus musculus, UniProt Q9QZL0, C111A); dimerization, size-exclusion chromatography; mouse kinase domain; concentration not given).

For quick reference, copied from above (study 2):
The bound/input enrichment of `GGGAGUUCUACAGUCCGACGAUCGUAAUGUGUCCAUUUAACUUAUUUUUAUAGCACUUAGGCAAUAUUGUUAGUCUUAGUGAGUAGUUCACAUCUUUACAAAAGCAUGCUCUCCCUAUCCAUUGGGCCCACAAUAACACUCUCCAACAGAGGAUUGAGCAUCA` is reported as 11.9 ratio.
The bound/input enrichment of `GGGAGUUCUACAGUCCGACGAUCCCUGGCUUCUUAAGGCUGUGCACCACUAUGGGAUCCUUUGCAGAAUGGUACUCAUAAAAUGGUUUAAACAACACAUGCUUAAUUGACUGUGCAGGAUGUCAAUCAAUCUGGGUUUGCUUUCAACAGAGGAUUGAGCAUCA` is reported as 0.168 ratio.
With `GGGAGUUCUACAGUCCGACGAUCAGCAAAAAAAAAAAAAAAAAAAAAAAAAAAAAGAGUCUCACUGUGCAGCUCAGCUUGUCUUUUAGUGUGUAGGCCUGGUUGUGAUCUUCCCAUCUCCUGAGAGCUGAGAUUACCAGUGUGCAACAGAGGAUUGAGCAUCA` the bound/input enrichment was 1.32 ratio.
For `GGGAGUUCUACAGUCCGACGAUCUUCAAAAUGAAAAUUGAAUACUGGCACUCCAUCUCUUAGAACAUAUGAAUUCUAGUGUUCAAUAUUCAUUAUUGGUUGUUUUUGUUGUGCUGAUUUUUGGUGAUCAGACCUCAGCUCCCUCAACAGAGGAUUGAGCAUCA`, the bound/input enrichment was 4.19 ratio.
